Measurements from different studies.
Target: Cytochrome P450 3A4 (CYP3A4, Homo sapiens, UniProt P08684)
Sequence of UniProt P08684 (whole entry, looked up): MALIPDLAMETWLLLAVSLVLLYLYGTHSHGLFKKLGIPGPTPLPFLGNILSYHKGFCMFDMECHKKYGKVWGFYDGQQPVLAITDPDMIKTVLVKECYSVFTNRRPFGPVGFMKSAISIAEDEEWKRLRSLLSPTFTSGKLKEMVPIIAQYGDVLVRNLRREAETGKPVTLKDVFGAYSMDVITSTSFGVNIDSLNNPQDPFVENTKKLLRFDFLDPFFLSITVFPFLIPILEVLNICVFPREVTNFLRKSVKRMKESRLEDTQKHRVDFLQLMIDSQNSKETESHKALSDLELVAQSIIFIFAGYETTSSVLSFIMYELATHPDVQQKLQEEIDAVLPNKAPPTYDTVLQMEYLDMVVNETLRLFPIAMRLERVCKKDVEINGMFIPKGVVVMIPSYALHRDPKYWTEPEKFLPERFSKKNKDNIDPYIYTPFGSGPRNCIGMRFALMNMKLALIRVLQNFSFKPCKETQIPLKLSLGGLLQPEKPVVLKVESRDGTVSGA

Compound | test | test system | setting | measurement | value
Cc1cc(Nc2ncnc3ccc(NC4=NC(C)(C)CO4)cc23)ccc1Oc1ccn2ncnc2c1 |  | human, plasma | oral, 300 mg, day 1, single dose alone | CL/F, mean | 93.5 L/h
C=CC(=O)Nc1cc(Nc2nccc(-c3cn(C)c4ccccc34)n2)c(OCC(F)(F)F)nc1N(C)CCNC | substrate depletion | recombinant human CYP | 1 µM | intrinsic clearance | 1 µL/min/pmol
CCC(C)n1ncn(-c2ccc(N3CCN(c4ccc(OCC5COC(Cn6cncn6)(c6ccc(Cl)cc6Cl)O5)cc4)CC3)cc2)c1=O (centres unmarked) |  | human, both sexes, plasma | oral, 200 mg, multiple doses, together with: pirtobrutinib | Cmax | 574 ng/mL
C=C(F)C(=O)N1CCN(c2nc(OC[C@@H]3CCCN3C)nc3c2CCN(c2cccc4cccc(Cl)c24)C3)C[C@@H]1CC#N |  | healthy volunteers, plasma | 200 mg, geometric mean, together with: itraconazole once daily | Cmax | 201 ng/mL
Cn1cncc1[C@@](N)(c1ccc(Cl)cc1)c1ccc2c(c1)c(-c1cccc(Cl)c1)cc(=O)n2C |  | human liver microsomes | 1 µM, together with: ketoconazole | share of CYP-mediated metabolism | 92.3%
CCCCC1=NC2(CCCC2)C(=O)N1Cc1ccc(-c2ccccc2S(=O)(=O)Nc2noc(C)c2C)c(COCC)c1 | mechanism-based inhibitor, unbound apparent |  |  | KI | 4.04 µM
C=CC(=O)N(C)CCOc1c(N)ncnc1-c1cc(F)cc(NC(=O)c2ccc(C3CC3)cc2F)c1C |  | recombinant enzyme |  | fraction unbound in incubation | 0.96
CC[C@H]1[C@@H](O)[C@@H]2[C@H](CC[C@]3(C)[C@@H]([C@H](C)CCNC(=O)NS(=O)(=O)c4ccc(C(C)(C)C)cc4)CC[C@@H]23)[C@@]2(C)CC[C@@H](O)C[C@@H]12 |  | human, plasma | 10 mg, day 1, compound alone | AUC(0-inf) geometric mean | 394 ng·h/mL

Excerpt of the above:
Compound | test | test system | setting | measurement | value
CCC(C)n1ncn(-c2ccc(N3CCN(c4ccc(OCC5COC(Cn6cncn6)(c6ccc(Cl)cc6Cl)O5)cc4)CC3)cc2)c1=O (centres unmarked) |  | human, both sexes, plasma | oral, 200 mg, multiple doses, together with: pirtobrutinib | Cmax | 574 ng/mL
